Published values collected from several papers.
Protocols differ between the studies behind these lines. “And” joins repeats or separate records; there may be more than shown.

CC(=O)NCC(=O)O — z-scored log2 fold change (binding, equilibrium dialysis LC-MS; 5 µM, thermostabilized A2AR-BRIL construct; relative to: no-protein control, direction not given): 0.354
O=C(O)CCCOc1ccc([18F])cc1-c1cc(-c2ccccc2C(F)(F)F)n(-c2ccccc2)n1 — brain uptake (mice; P-glycoprotein inhibition, added: cyclosporine A pretreatment; relative to: without cyclosporine A): no effect
CCOC(=O)c1c(NC(=O)CNC(C)C)sc2c1CCCCC2 — brain concentration (mice (male), brain; intraperitoneal, 5 mg/kg, 0.5 h): 379 ng/g
COc1nc(-c2cc(C)c(N[C@@H](C)c3cc(F)cc(F)c3)nn2)ccc1-n1cnc(C)c1 — brain concentration (C57BL/6J mice, male, brain; oral, 50 mg/kg daily for 9 days, 4 h after last dose): 13700 ng/g
CCCCCN1C[C@H](O)[C@@H](O)[C@H](O)[C@@H]1CO — brain concentration (LC-MS/MS; Hexb-/- mice, brain; 30 mg/kg/day): 37 ng/mL
COc1cc2c(Nc3ccc(Cl)c(Cl)c3F)ncnc2cc1OC[C@@H]1C[C@@H]2CN(C)C[C@@H]2C1 — brain concentration (FVB wild-type mice, both sexes, brain; intraperitoneal infusion (osmotic pump), dose not given, 48 h): 1460 ng/g
COc1nc(-c2cc(C)c(N[C@@H](C)c3c(F)cc(F)cc3F)nn2)ccc1-n1cnc(C)c1 — brain concentration (C57BL/6J mice, male, brain; oral, 25 mg/kg daily for 9 days, 4 h after last dose): 4200 ng/g
CN(C)CC#Cc1ccc2[nH]c3c(c2c1)-c1nc(N)ncc1CCC3 — brain to plasma ratio (CD-1 mice, male; intraperitoneal, 30 mg/kg, 1 h): 0.669 and 0.638
OC[C@H]1O[C@H](OC[C@H]2O[C@H](OC[C@H]3O[C@H](O[C@]4(CO)O[C@H](CO)[C@@H](O)[C@@H]4O)[C@H](O)[C@@H](O)[C@@H]3O)[C@H](O)[C@@H](O)[C@H]2O)[C@H](O)[C@@H](O)[C@H]1O — z-scored log2 fold change (binding, equilibrium dialysis LC-MS; 5 µM, thermostabilized A2AR-BRIL construct; relative to: no-protein control, direction not given): 0.572
Cn1ncnc1[C@H]1c2n[nH]c(=O)c3cc(F)cc(c23)N[C@@H]1c1ccc(F)cc1 — brain concentration (FVB Mdr1a/b−/− mice, brain; oral, 0.15 mg/kg, 2 h): 17.2 ng/g
CC(C)[C@@H](CS(=O)(=O)C(C)C)N1C(=O)[C@@](C)(CC(=O)O)C[C@H](c2cccc(Cl)c2)[C@H]1c1ccc(Cl)cc1 — brain to plasma ratio (FVB Abcb1a/b-/- Abcg2-/- mice; oral, 20 mg/kg, total AUC ratio): 0.314

Some of these lines once more:
Cn1ncnc1[C@H]1c2n[nH]c(=O)c3cc(F)cc(c23)N[C@@H]1c1ccc(F)cc1 — brain concentration (FVB Mdr1a/b−/− mice, brain; oral, 0.15 mg/kg, 2 h): 17.2 ng/g
